# Measured values pooled from the literature.
# Lines come from different studies, so protocols differ. Numbers after ± are the reported error.
Molecule,tested on,test,test system,setting,quantity,result
"cbh (Clostridium perfringens, UniProt P54965)",C[C@H](CCC(=O)NCC(=O)O)[C@H]1CC[C@H]2[C@@H]3[C@H](O)C[C@@H]4C[C@H](O)CC[C@]4(C)[C@H]3C[C@H](O)[C@]12C,steady-state kinetics,,"pH 6.2, 37 °C",kcat/Km,518000 ± 56700 M⁻¹ s⁻¹
dmhA T187A (Campylobacter jejuni),Nc1nc2c(ncn2[C@@H]2O[C@H](COP(=O)(O)OP(=O)(O)O[C@H]3O[C@H]([C@H](O)CO)[C@@H](O)[C@H](O)[C@@H]3O)[C@@H](O)[C@H]2O)c(=O)[nH]1,steady-state kinetics,,"pH 7.5, 30 °C",kcat/Km,2000 ± 100 M⁻¹ s⁻¹
CD4 soluble (UniProt P01730),env gp120 H66A (HIV-1 YU2),"HIV-1 neutralization, neutraliser",Cf2Th-CD4/CCR5,with: soluble CD4,IC90,200 nM
bismuth potassium citrate,"Replicase polyprotein 1ab, nsp13 helicase (rep, Severe acute respiratory syndrome coronavirus 2, UniProt P0DTD1)",helicase activity,SARS-CoV-2,,IC50,440 nM
"Rv1045 (Mycobacterium tuberculosis, UniProt P96356)",O=c1ccn([C@@H]2O[C@H](COP(=O)(O)OP(=O)(O)OP(=O)(O)O)[C@@H](O)[C@H]2O)c(=O)[nH]1,steady-state kinetics,,"pH 8.5, 37 °C",Km,874 µM
dmhA S134A (Campylobacter jejuni),Nc1nc2c(ncn2[C@@H]2O[C@H](COP(=O)(O)OP(=O)(O)O[C@H]3O[C@H]([C@H](O)CO)[C@@H](O)[C@H](O)[C@@H]3O)[C@@H](O)[C@H]2O)c(=O)[nH]1,steady-state kinetics,,"pH 7.5, 30 °C",kcat/Km,8800 ± 300 M⁻¹ s⁻¹
rhodiosin,"Replicase polyprotein 1ab, main protease (rep, Severe acute respiratory syndrome coronavirus 2, UniProt P0DTD1)","enzyme activity, inhibitor",,63 min preincubation,IC50,1450 nM

# Some of these lines once more:
Molecule,tested on,test,test system,setting,quantity,result
CD4 soluble (UniProt P01730),env gp120 H66A (HIV-1 YU2),"HIV-1 neutralization, neutraliser",Cf2Th-CD4/CCR5,with: soluble CD4,IC90,200 nM
